Measurements from different studies.
Protocols differ between the studies behind these lines. Values joined by “and” are separate records of one study, mostly repeats; a detail may differ. ± marks the error that the study gave.

COc1cc2ncnc(Nc3ccc(Oc4ccccc4)cc3C)c2cc1OC
viability (NCI-H2087 (BRAF L597V); resazurin; 0.3 µM, 72 h, together with: trametinib 0 nM): 85.5%

COc1ccc(-n2nc(C(C)=O)s/c2=N\N=C(/C)c2ccc(NC(=O)c3ccc(Cl)cc3)cc2)cc1
viability (HepG2; 1.25 µM): 5.72%

CNCc1ccc(-c2[nH]c3cc(F)cc4c3c2CCNC4=O)cc1
viability (HBL-1; 0.5 µM, 120 h): 128%

COc1cc2ncnc(Nc3ccc(Oc4ccccc4)c(C)c3C)c2cc1OC
viability (NCI-H2087 (BRAF L597V); resazurin; 0.1 µM, 72 h, together with: trametinib; reference: DMSO): 101%

COc1ccc(-n2nc(C(C)=O)s/c2=N\N=C(/C)c2ccc(NC(=O)c3ccccc3)cc2)cc1
viability (MCF7; 0.078 µM): 88.6%

C=C(C)[C@@H](CC=C(C)C)C[C@@]12C[C@@H](CC=C(C)C)C(C)(C)[C@@](CC=C(C)C)(C(=O)C(C(=O)c3ccc(O)c(O)c3)=C1O)C2=O
viability (HBL-1; 0.5 µM, 120 h): 76.2%

O=P(O)(O)C(O)(Cn1ccnc1)P(=O)(O)O
viability (MDA-MB-231; AlamarBlue; 3.8 µM, 48 h; reference: control): 99 ± 2%

Nc1cccc2c1C(=O)N(C1CCC(=O)NC1=O)C2=O (stereo not shown)
viability (bone marrow CD138+ myeloma cells; XTT; 0.4 µM, mean of three patients): 98%

CC(C)(C)OC(=O)CN(Cc1ccc(Cl)cc1)Cc1ccc([N+](=O)[O-])s1
viability (HBL-1; 1 µM, 120 h): 103%

Nc1cccc2c1CN(C1CCC(=O)NC1=O)C2=O (stereo not shown)
viability (bone marrow CD138+ myeloma cells; XTT; 1.6 µM, phenol red-free RPMI): 17%

O=C(O)CNC(=O)C(=O)O
viability (HBL-1; 0.5 µM, 120 h): 124%

Cc1cccc(-c2[nH]c(CNc3ccccc3F)nc2-c2ccc3ncnn3c2)n1
viability (MM1.S; XTT; 2.5 µM): 12% and 17% and 13%

COc1ccc(-n2nc(C(C)=O)s/c2=N\N=C(/C)c2ccc(NC(=O)c3ccc(C)cc3)cc2)cc1
viability (HepG2; 0.625 µM): 17.8%
